# Experimental data collected from several papers.
# Each line is one published result; not all experiments were run side by side. Several values in a cell are separate wells, animals, samples, runs or records. Numbers after ± are the reported error.
# T1: riboswitch RNA U39C (Bacillus); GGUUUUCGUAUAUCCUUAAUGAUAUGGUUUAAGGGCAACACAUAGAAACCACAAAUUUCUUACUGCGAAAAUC
# T2: G-quadruplex DNA, parallel G-quadruplex (Homo sapiens); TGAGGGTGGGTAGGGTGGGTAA
# UniProt P30531, sequence (whole entry, looked up): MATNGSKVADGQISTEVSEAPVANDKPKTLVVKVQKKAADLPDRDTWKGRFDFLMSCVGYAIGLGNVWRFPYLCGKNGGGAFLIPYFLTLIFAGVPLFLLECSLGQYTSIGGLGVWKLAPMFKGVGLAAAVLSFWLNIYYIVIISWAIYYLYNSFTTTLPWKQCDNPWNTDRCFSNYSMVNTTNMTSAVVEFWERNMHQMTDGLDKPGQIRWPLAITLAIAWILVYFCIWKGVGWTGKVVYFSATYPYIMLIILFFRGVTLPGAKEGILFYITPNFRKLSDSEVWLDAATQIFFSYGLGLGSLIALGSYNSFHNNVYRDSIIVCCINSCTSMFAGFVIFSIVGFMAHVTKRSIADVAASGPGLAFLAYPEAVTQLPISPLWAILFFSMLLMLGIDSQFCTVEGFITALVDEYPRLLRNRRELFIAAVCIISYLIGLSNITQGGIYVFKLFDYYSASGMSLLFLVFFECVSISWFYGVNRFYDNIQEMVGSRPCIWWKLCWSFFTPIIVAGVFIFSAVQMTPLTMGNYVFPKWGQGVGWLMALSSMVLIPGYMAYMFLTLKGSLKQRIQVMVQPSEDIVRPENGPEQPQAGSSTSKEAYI
# UniProt P62316, sequence (whole entry, looked up): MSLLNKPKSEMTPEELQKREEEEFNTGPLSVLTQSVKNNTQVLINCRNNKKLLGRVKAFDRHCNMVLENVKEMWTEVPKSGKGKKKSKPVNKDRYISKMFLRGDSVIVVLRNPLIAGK
# UniProt P55210, sequence (whole entry, looked up): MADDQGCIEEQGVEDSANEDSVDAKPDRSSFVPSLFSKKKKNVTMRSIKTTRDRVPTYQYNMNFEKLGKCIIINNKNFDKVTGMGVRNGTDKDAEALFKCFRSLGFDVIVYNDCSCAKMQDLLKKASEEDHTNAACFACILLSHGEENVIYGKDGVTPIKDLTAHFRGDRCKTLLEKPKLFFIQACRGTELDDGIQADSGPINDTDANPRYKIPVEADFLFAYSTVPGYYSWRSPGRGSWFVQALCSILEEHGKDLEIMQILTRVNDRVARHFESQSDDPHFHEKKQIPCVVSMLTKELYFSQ
# UniProt P00921, sequence (whole entry, looked up): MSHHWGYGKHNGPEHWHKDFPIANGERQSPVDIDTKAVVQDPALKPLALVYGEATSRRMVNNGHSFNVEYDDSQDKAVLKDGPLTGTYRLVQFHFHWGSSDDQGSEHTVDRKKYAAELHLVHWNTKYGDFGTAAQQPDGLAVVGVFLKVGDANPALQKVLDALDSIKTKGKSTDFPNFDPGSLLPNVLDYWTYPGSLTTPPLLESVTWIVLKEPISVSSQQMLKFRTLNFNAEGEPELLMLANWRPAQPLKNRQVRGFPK
# UniProt Q9HB29, sequence (whole entry, looked up): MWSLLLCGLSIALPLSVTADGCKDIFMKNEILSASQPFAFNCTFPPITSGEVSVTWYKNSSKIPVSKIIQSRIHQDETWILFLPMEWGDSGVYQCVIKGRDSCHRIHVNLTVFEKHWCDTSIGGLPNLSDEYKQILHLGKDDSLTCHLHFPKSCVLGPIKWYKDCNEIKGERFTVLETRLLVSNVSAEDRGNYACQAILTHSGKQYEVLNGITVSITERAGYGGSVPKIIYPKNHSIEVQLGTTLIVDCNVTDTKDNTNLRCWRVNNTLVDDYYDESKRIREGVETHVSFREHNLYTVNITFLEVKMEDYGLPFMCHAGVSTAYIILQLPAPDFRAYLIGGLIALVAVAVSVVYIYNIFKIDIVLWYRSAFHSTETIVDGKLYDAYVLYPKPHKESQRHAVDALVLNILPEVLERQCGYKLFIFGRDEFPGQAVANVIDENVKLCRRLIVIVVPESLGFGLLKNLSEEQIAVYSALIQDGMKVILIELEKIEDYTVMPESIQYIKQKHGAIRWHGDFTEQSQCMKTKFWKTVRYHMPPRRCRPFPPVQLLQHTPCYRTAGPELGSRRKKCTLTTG
# UniProt Q96RI0, sequence (whole entry, looked up): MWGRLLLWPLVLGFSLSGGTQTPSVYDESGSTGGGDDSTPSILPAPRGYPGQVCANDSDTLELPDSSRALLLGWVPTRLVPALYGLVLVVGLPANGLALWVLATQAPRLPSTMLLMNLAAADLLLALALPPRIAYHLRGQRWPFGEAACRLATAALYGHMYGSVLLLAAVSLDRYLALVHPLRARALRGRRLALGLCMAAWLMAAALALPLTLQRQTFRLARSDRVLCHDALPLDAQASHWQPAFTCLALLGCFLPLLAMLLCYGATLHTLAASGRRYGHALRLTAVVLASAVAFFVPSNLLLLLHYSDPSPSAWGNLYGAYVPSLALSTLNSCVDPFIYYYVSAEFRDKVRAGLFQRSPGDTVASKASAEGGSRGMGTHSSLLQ
# UniProt P33240, sequence (whole entry, looked up): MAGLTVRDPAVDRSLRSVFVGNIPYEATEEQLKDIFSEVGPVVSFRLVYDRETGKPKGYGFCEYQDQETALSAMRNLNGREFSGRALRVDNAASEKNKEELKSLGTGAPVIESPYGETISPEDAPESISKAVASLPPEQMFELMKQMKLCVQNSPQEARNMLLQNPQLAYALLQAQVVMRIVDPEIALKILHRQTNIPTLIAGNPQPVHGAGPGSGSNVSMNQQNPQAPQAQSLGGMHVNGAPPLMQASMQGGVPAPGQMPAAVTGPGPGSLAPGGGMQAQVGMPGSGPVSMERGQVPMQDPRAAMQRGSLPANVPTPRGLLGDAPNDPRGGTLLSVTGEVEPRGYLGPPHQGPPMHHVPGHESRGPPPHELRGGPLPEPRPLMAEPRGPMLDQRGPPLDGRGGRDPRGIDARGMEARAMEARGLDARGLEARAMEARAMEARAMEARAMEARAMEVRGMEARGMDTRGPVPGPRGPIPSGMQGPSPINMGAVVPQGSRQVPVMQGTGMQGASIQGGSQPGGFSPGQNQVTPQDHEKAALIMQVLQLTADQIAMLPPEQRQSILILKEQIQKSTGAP
# UniProt P19491, sequence (whole entry, looked up): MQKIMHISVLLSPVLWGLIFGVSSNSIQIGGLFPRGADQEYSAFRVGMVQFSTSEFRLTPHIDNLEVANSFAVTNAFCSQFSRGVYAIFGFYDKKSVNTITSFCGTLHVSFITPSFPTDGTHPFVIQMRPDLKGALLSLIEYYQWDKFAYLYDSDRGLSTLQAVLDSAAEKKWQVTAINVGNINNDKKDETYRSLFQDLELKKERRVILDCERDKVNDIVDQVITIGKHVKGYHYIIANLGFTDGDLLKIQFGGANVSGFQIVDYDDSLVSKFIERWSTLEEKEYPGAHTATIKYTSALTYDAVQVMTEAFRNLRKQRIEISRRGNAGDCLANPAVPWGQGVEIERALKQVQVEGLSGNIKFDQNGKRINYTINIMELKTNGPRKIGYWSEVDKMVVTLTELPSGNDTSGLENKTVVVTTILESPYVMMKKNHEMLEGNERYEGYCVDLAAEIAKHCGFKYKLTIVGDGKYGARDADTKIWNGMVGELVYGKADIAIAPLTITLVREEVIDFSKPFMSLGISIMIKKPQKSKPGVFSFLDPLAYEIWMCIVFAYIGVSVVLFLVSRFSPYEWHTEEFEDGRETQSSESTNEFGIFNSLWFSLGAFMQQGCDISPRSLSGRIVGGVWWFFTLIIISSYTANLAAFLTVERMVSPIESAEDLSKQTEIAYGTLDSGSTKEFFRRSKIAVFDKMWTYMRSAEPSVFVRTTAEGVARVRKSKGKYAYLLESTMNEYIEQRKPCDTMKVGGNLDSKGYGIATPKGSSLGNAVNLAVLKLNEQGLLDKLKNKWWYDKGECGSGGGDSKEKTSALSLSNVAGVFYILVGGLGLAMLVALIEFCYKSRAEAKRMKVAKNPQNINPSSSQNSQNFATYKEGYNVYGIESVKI
# UniProt P34972, sequence (whole entry, looked up): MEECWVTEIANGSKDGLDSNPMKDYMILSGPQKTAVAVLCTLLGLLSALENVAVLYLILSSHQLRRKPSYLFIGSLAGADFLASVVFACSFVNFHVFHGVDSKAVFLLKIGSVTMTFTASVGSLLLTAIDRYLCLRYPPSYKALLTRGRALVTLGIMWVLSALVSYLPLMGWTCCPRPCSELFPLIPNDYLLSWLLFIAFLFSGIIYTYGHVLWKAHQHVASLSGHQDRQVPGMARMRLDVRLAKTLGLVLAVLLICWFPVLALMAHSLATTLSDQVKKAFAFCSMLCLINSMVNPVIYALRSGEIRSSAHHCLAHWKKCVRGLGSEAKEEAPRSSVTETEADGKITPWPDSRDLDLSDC
SMILES,target,test,system,setting,scale,endpoint,value
NS(=O)(=O)c1ccc(CN2C(=O)c3ccc(N4CCOCC4)cc3C2=O)cc1,"Carbonic anhydrase 2 (CA2, Bos taurus, UniProt P00921)",binding,,"2 µM, pH 7.2",baseline: without protein,fluorescence turn-on,7.1 ± 0.8 fold
CCOC(=O)C(CC)(CCCOC)NC(=O)c1ccc(C2CC2)c(Cc2ccc(F)cc2)n1 (centres unmarked),"Cannabinoid receptor 2 (CNR2, Homo sapiens, UniProt P34972)",radioligand binding,,,baseline: CB1 over CB2 (human),Ki ratio,4
Cc1ccc(C(=O)NC(C)c2cccc(-c3ccncc3)c2)cn1 (centres unmarked),human kinase panel,"binding, KINOMEscan",,"10000 nM, %Ctrl below 10",,number of kinases hit,0
C=CC(=O)N1CCCC(n2c(=O)c3ncccc3n(Cc3ccc(Oc4ccccc4)cc3)c2=O)C1 (centres unmarked),"Small nuclear ribonucleoprotein Sm D2 (Homo sapiens, UniProt P62316)","thermal proteome profiling, measured: SNRPD2",,treated,,melting temperature,60 °C and 58.7 °C
CCCCCCCCCCCCC/C=C/C=O,"Cleavage stimulation factor subunit 2 (CSTF2, Homo sapiens, UniProt P33240)","competitive isoTOP-ABPP, measured: CSTF2 cysteine peptide","proteome, soluble, MDA-MB-231","100 µM, with: iodoacetamide probe","baseline: DMSO over compound-treated, higher = stronger cysteine blockade",isoTOP-ABPP competition ratio,1
CC(=O)N[C@@H](Cc1c[nH]c2ccccc12)C(=O)N[C@@H](CCC(=O)O)C(=O)N[C@@H](C)C(=O)N[C@@H](CC(=O)O)C(=O)COC(=O)c1c(C)cccc1C,"Caspase-7 (CASP7, Homo sapiens, UniProt P55210)","enzyme activity, inhibitor",,,,kinact/KI,20400 M⁻¹ s⁻¹
CCCCCCCCCCCCCCCC(=O)N[C@@H](CCCCN)C(=O)N[C@@H](CCCCN)C(=O)N[C@@H](CO)C(=O)N[C@@H](CCCNC(=N)N)C(=O)N[C@@H](C)C(=O)N[C@@H](CC(C)C)C(=O)N[C@@H](Cc1ccccc1)C(N)=O,"Proteinase-activated receptor 4 (F2RL3, Homo sapiens, UniProt Q96RI0)","antagonist, ex vivo light transmittance aggregometry","human, platelet-rich plasma","0.5 mg/kg, 2 h, with: AYPGKF 160 µM",baseline: baseline,inhibition of platelet aggregation,35%
Nc1nc2c(ncn2[C@H]2C[C@H](O)[C@@H](CO)O2)c(=O)[nH]1,"T1, riboswitch RNA U39C (Bacillus)",ITC,,"KCl 50 mM, comparable to WT, read off a plot",,Kd,5.4 µM
Cc1ccc(-c2c[nH]nc2C(=O)NC2CC2)cc1,human kinase panel,"binding, KINOMEscan",,"10000 nM, %Ctrl below 10",,number of kinases hit,0
CC(C)[C@@H]1NC(=O)[C@H](Cc2ccccc2)NC(=O)CSC[C@@H](C(N)=O)NC(=O)[C@H](CCC(=O)O)NC(=O)[C@H](CO)NC(=O)[C@H](Cc2c[nH]c3cccc(Cl)c23)NC(=O)[C@H](C2CCCCC2)NC(=O)[C@H](C(C)C)NC(=O)[C@H](Cc2ccc(O)cc2)NC(=O)[C@H](CC(=O)O)NC(=O)[C@H](Cc2c[nH]c3ccccc23)NC(=O)[C@H](Cc2ccc(N)nc2)NC(=O)[C@H](Cc2c[nH]c3ccc(Cl)cc23)NC(=O)[C@H](CCC(=O)O)NC1=O,"Interleukin-1 receptor-like 2 (IL1RL2, Homo sapiens, UniProt Q9HB29)","SEAP reporter gene, antagonist",HEK-Blue IL-36R cells,"100 µM, 6 h, with: IL-36 3 ng/mL",baseline: untreated,remaining activity,4.1%
CN(C)c1ccc(/C=C/C=C/c2cc(-c3ccc(N(C)C)cc3)[o+]c3ccccc23)cc1,"T2, G-quadruplex DNA, parallel G-quadruplex (Homo sapiens)",fluorescence turn-on,,absorption red shift,,binding,binds
CC1=C(/C=C/C(C)=C\C=C\C(C)=C\C=O)C(C)(C)CCC1,"Rhodopsin (RHO, Homo sapiens, UniProt P08100, T17M)","ER retention, co-localization with calnexin",COS-7 transfected T17M,"10 µM, multinucleated cells",,Pearson correlation coefficient,0.456 ± 0.02
O=C(O)Cc1cc2c(cc1C(=O)c1ccc(Cl)cc1Cl)OCO2,"Glutamate receptor 2 (Gria2, Rattus norvegicus, UniProt P19491)","glutamate-evoked current, whole-cell patch clamp",HEK-293T,concentration not given,baseline: glutamate alone,current amplitude ratio,9.67 ± 0.9
COc1ccc(C(OCCN2CCCC(C(=O)O)C2)(c2ccc(OC)cc2)c2ccc(OC)cc2)cc1 (centres unmarked),"Sodium- and chloride-dependent GABA transporter 1 (SLC6A1, Homo sapiens, UniProt P30531)","GABA transport, inhibitor, radioligand uptake",HEK293F transfected,"4 µM, 15 min pre, 45 min uptake, room temperature, with: [3H]-GABA 30 nM, GABA 25 µM",higher = more uptake,[3H]-GABA uptake,3950 a.u. and 1200 a.u. and 1300 a.u. and 1020 a.u. and 1400 a.u. and 3440 a.u. and 911 a.u. and 917 a.u.
